Measurements collected from several papers.
A part holds a random share of what one study measured. Values joined by “and” are separate records of one study, mostly repeats; a detail may differ.

Series 1
Target: Replicase polyprotein 1ab, main protease (rep, Severe acute respiratory syndrome coronavirus 2, UniProt P0DTD1)
Observed: enzyme activity
Action: inhibitor
Tested at: 20 µM
Notes: primary screen
Measurement: inhibition
NC(Cc1cc(O)c(O)cc1O)C(=O)O (racemic): 62.8%
COC(=O)C1=C(C)NC(C)=C(C(=O)OC)C1c1ccccc1[N+](=O)[O-]: 89.5% and 32.2%
CCCOc1ccc(CSc2nnc[nH]2)cc1: 56.7%
Cc1cc(OI)c(C(C)C)cc1-c1cc(C(C)C)c(OI)cc1C: 29%
CCCCOc1ccc(CC/C=C2\SC(=O)N(CCN)C2=O)cc1: 40.3%

Series 2
Target: Fragile X messenger ribonucleoprotein 1, C-terminal low-complexity region (Fmr1, Mus musculus, UniProt P35922)
Method: RNA Bind-n-Seq
Form: RNA
Medium: in vitro
Tested at: 200 nM
Notes: whole 134-nt RNA, ends assumed
Together with: 150 mM LiCl
Baseline: input library
Direction: higher = stronger binding
Measurement: log2 enrichment
All molecules: 7-deaza-guanosine replaces G
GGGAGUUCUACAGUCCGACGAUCUGGCCCUGGUGGCAUGCGGGGAGGAAGAGGUGGCCUCAUGGAUCGUGGUGGUCCCGGUGGAAUGUUCAGAGGUGGCCGUGGUGGAGACACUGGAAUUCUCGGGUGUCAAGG: 0.26
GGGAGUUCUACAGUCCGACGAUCGUCCUGUGCUACACAUCGUAUGUACCGAAUCGGGGCCCCCGGCCCCCGGGGCCCCCGGGAAAGUAUUAUGUUACGCCGUUCGGAUCUGCAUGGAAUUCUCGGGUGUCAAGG: -3.14
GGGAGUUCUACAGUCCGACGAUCGUCCUGUGCUACACAUCGUAUGUACCGAAUCGGGGAGGGGUUUGGGGUUUUUUUGGGGAAAGUAUUAUGUUACGCCGUUCGGAUCUGCACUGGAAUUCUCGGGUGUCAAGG: -0.739
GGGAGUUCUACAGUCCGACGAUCCAAGUCCUGUGCUACACAUCGUAUGUACCGAAUCGGGAAAGGGAAAGGGAAAGGGAAAGUAUUAUGUUACGCCGUUCGGAUCUGCACUUCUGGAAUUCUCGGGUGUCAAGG: -0.79
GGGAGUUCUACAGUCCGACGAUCUGCCGAUUCGGAAGUCCUUGAGGAGCGUCAGAAGCGGCUUCCCUACGUCCCAGAGCCCUAUUACCCGGAAUCUGGAUGGGACCGCCUCCGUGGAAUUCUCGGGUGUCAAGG: -1.17
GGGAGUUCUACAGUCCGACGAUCUCAAGUCCUGUGCUACACAUCGUAUGUACCGAAUCGGAAAGGAAAAAAAGGAGGAAAGUAUUAUGUUACGCCGUUCGGAUCUGCACUUCCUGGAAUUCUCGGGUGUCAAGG: -0.241
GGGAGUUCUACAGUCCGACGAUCCUGUGCUACACAUCGUAUGUACCGAAUCGGGGUUUUUUUGGGGUUUUUUUGGGGAAAGGGGAAAGUAUUAUGUUACGCCGUUCGGAUCUGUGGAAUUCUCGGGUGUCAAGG: 1.27
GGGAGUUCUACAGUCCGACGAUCCAAGUCCUGUGCUACACAUCGUAUGUACCGAAUCGGGUUUUUGGGUUUGGGAGGGAAAGUAUUAUGUUACGCCGUUCGGAUCUGCACUUCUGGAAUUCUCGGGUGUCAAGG: -0.673

Series 3
Target: Replicase polyprotein 1ab, nsp13 helicase (rep, Severe acute respiratory syndrome coronavirus 2, UniProt P0DTD1)
Action: inhibitor
Tested at: 20 µM
Measurement: inhibition
COc1cc2c(N3CCN(C(=O)Nc4ccc(OC(C)C)cc4)CC3)ncnc2cc1OCCCN1CCCCC1: 5.7%
CCCN[C@@H]1CCc2c(OC)cccc2[C@@H]1C: -3.33%
Cc1cc(C(=O)Nc2cc(Oc3ccc4nc(NC(=O)C5CC5)cn4n3)ccc2C)n(C)n1: 6.1%
CC(C(=O)O)c1ccc2c(c1)[nH]c1ccc(Cl)cc12 (stereo not drawn): 16.3%
Nc1ccc(C(=O)O)cc1: -6.27%
CC1(C)Oc2ccc(C#N)cc2[C@@H](N2CCCC2=O)[C@@H]1O: -0.85%
CCCc1nc2c(C)cc(-c3nc4ccccc4n3C)cc2n1Cc1ccc(-c2ccccc2C(=O)O)cc1: 10.7%
COc1ccc(CCN(C)CCc2ccc(OC)c(OC)c2)cc1OC: -0.87%
O=C1N=C2SCCN2C(=O)C1Cc1ccc(Cl)cc1 (stereo not drawn): 8.99%
C[C@H](Cc1cc2c(c(C(N)=O)c1)N(CCCO)CC2)NCCOc1ccccc1OCC(F)(F)F: 3.83%
CCNC(C)CN1CCc2c(c(=O)oc3ccccc23)C1 (stereo not drawn): 9.12%
Cc1ccc([N+](=O)[O-])cc1S(=O)(=O)N(C)/N=C/c1cnc2ccc(Br)cn12: 7.58%
Nc1nc(=O)c2sc(=O)n([C@@H]3O[C@H](CO)[C@@H](O)[C@H]3O)c2[nH]1: 6.81%
NC(=O)c1cnc(N[C@@H]2CCCC[C@@H]2N)nc1Nc1cccc(-n2nccn2)c1: 3.01%
NC1(C(=O)O)CC1: 6.77%
CNC(=O)c1ccccc1Nc1cc(Nc2ccc(N3CCOCC3)cc2OC)ncc1C(F)(F)F: 6.51%
NS(=O)(=O)c1cc2c(cc1Cl)NC(C1CC3C=CC1C3)NS2(=O)=O (stereo not drawn): 6.03%
CC(=O)O[C@H]1C[C@@H]2CC[C@@H]3[C@H](CC[C@@]4(C)[C@H]3C[C@H](N3CC[N+](C)(C)CC3)[C@@H]4OC(C)=O)[C@@]2(C)C[C@@H]1N1CC[N+](C)(C)CC1: 19.5%
CN1[C@@H]2CC[C@H]1CC(OC(c1ccccc1)c1ccc(Cl)cc1)C2 (stereo partly drawn): 2.04%
Nc1c(-c2cccc(C(F)(F)F)c2)nsc1C(=O)O: 2.96%
O=C1c2c(O)ccc(O)c2C(=O)c2c(NCCNCCO)ccc(NCCNCCO)c21: 109%
CS(=O)(=O)Nc1cc2occ(NC=O)c(=O)c2cc1Oc1ccccc1: 3.09%
COc1ccc2[nH]c(C(=O)c3ccccc3)cc2c1: 7.98%
COc1cccc(OC)c1-c1cc(C(=O)NC2(C(=O)O)C3CC4CC(C3)CC2C4)nn1-c1ccnc2cc(Cl)ccc12 (stereo not drawn): 17.8%
Cc1cc(C)cc(C(=O)OC2C[C@H]3CC[C@@H](C2)N3C)c1 (stereo partly drawn): 3.93%

Series 4
Organism: Vesicular stomatitis virus
Observed: pseudovirus infection
Method: FDA-approved drug library screen
Tested at: concentration not given
Notes: SARS-CoV-2 spike pseudotype
Baseline: vehicle
Measurement: GFP-positive cells
O=C([O-])c1ccccc1[O-].[Bi+3].[OH-]: 73.1%
CCCCC(O)c1ccccc1 (stereo not drawn): 108%
Nc1nc2[nH]cc(CCc3ccc(C(=O)N[C@@H](CCC(=O)O)C(=O)O)cc3)c2c(=O)[nH]1: 71.8%
CC[C@@H]1C(=O)OC[C@@H]1Cc1cncn1C.Cl: 93.1%
COc1nc2ccc(Br)cc2cc1[C@@H](c1ccccc1)[C@@](O)(CCN(C)C)c1cccc2ccccc12: 48.9%

Series 5
Target: Sal-like protein 4, full length isoform B (SALL4, Homo sapiens, UniProt Q9UJQ4-2, residues 1-616)
Method: universal PBM
Form: double-stranded DNA, one strand shown
Medium: in vitro
Tested at: not given
Notes: 8-mer, flanks averaged, mean of replicates
Direction: higher = stronger binding
Measurement: E-score
Residues (chain): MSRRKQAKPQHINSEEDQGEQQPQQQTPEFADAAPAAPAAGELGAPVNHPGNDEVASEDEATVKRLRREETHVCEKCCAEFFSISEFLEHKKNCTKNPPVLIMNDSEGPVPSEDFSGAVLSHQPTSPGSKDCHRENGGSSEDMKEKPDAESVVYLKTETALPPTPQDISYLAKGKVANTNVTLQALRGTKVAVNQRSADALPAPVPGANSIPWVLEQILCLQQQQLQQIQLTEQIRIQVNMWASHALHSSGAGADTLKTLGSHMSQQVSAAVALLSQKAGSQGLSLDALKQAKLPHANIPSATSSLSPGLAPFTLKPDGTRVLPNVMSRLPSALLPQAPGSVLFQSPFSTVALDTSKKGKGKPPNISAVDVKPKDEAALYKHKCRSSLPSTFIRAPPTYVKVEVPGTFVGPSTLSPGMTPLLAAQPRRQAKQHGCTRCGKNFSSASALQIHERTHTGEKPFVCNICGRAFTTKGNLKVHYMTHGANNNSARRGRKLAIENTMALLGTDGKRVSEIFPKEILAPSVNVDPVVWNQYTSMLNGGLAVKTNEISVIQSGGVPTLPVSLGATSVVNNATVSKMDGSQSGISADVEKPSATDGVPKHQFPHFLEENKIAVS
AGTTCTCG: 0.0594
TAGGGACA: 0.0305
CTAGAGCA: -0.17
ATTCGGCG: -0.141
ATTATCTC: 0.272
CAGCTCAC: -0.112
CAACGATC: -0.0209
ATGAGGAG: 0.0916

Repeated from above (series 3):
COc1ccc(CCN(C)CCc2ccc(OC)c(OC)c2)cc1OC: -0.87%
O=C1N=C2SCCN2C(=O)C1Cc1ccc(Cl)cc1 (stereo not drawn): 8.99%
C[C@H](Cc1cc2c(c(C(N)=O)c1)N(CCCO)CC2)NCCOc1ccccc1OCC(F)(F)F: 3.83%
CCNC(C)CN1CCc2c(c(=O)oc3ccccc23)C1 (stereo not drawn): 9.12%
Cc1ccc([N+](=O)[O-])cc1S(=O)(=O)N(C)/N=C/c1cnc2ccc(Br)cn12: 7.58%
Nc1nc(=O)c2sc(=O)n([C@@H]3O[C@H](CO)[C@@H](O)[C@H]3O)c2[nH]1: 6.81%
NC(=O)c1cnc(N[C@@H]2CCCC[C@@H]2N)nc1Nc1cccc(-n2nccn2)c1: 3.01%
